# Measured values of several laboratories.
# Numbered parts are unrelated; each lists some results of a single study. Substitutions count along the parent as printed.

# Sample 1
# Target: Histone acetyltransferase KAT6A, winged helix 1, GST fusion (KAT6A, Homo sapiens, UniProt Q92794, residues 1-85)
# Technique: protein binding microarray
# Molecule type: double-stranded DNA, one strand shown
# Matrix: in vitro
# Concentration: not given
# Notes: 8-mer, flanks averaged, mean of 2 arrays, mostly near background
# Baseline: not given
# Reading: higher = stronger binding
# Residues (chain): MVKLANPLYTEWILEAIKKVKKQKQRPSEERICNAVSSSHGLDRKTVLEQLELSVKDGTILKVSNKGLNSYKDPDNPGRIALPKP
Strand,E-score
CCGTTGGA,0.107
GAAACTGC,0.162
AGTAAGGC,0.0672
GAGGGCCA,-0.165
CTAATCCC,0.106
ATTAAACC,0.0111
GTCTGCCA,0.0113
CCTTATCG,0.0423
CGAGGGAA,-0.08
ACAAGTAC,-0.0273
AACCTGCT,-0.166
GGGATTGA,-0.0431
GAACCGAA,-0.0562
CGCAACAC,0.278
GGCGTCAA,-0.00019
GGAGACCC,0.029
TATTCTCA,-0.205
CGCAGTAA,0.0815
AGATGGTC,-0.174

# Sample 2
# Target: CCNB2, cyclin fold, Cln2 fusion (human)
# Technique: yeast growth competition, sequencing
# Matrix: yeast
# Notes: weak parent motif
# Baseline: not given
# Reading: higher = stronger binding
# Parent: CDC6 docking peptide (human); TLKGRRLVFDNQL
Change,normalised enrichment score
Q12Y,0.752
L13K,-0.0822
G4V,0.00343
L7V,0.232
F9E,0.401
K3Q,0.286
L13C,0.147
K3Y,0.39
R6N,-0.0826
D10H,0.0587
D10E,-0.816
L2M,0.141
N11F,0.496
Q12E,-0.313
K3A,-0.332
K3N,0.265

# Sample 3
# Target: RING finger protein unkempt homolog, zinc fingers 1-6, SBP tag (UNK, Homo sapiens, UniProt Q9C0B0, residues 30-357)
# Sequence of UniProt Q9C0B0 (30-357, looked up): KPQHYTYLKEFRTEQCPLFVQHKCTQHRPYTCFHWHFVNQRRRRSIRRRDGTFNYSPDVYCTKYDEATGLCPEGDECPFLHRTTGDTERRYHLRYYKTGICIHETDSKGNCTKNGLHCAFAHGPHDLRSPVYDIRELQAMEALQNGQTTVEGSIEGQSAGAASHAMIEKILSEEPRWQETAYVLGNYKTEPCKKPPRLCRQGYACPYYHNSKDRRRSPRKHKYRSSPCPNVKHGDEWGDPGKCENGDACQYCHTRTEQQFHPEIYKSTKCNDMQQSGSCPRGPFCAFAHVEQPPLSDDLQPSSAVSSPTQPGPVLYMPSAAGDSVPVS
# Technique: RNA Bind-n-Seq
# Molecule type: RNA
# Matrix: in vitro
# Concentration: 100 nM
# Notes: RNA with constant flanks, vertebrate orthologous sites, ends assumed
# Baseline: input RNA pool
# Reading: higher = stronger binding
Strand,bound/input enrichment [ratio]
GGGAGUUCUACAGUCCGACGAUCAUCCUCAACUUGUUCUAGCUUGUGAUCCUUCAAAGUUGGGUCGGCAUUCGUGCCAGGUACUAGAAAAUUUCAUUUCUCUAUUGCCACUGAUCAGAGAGACAGACGUUAAAAACAGGAACACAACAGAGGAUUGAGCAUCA,0.593
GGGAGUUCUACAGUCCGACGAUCUCUAGACAGUUUUAAAGAUACUUCCUCAUAAGAUGCUUUGGCCCUUCAUCUAUUUAAUCGUAGCUACAUAUCUAUUUUUAUAAGUAGCAGUACACCUUCCAAGGGGACUCAACUUUUAUCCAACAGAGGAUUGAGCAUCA,0.514
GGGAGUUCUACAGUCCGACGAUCAUUCAAACCCGUGGUGCCCUGGCCUCAUGUGGAAGGCGUAGAAGUGGACUUGGAGUCUAUUCGAAGAAGGAACAAGGCCAGACAUGAACAAGAGCGCCGCCCCGGAGGAGAGAACCAGAACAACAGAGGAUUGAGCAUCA,0.198
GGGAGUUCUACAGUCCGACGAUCCUACCGUAAACAACUCAGGGCAGUAUUCUCCGUAUCCUUACAGAAACCUAAAUCAGGGAUUAGUUAACAGUACAGGGAUGAAUCAAAAUUUAGGCCUUACAAACAGUACUCCAAUGAACCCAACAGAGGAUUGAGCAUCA,0.83
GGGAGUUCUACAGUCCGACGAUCAUCAUGGUUGCUUUUUACCGCCUCAAUGAGGUAAAGUCUCCCUUGGCAUUUGGUAGUUACAAGAGCCAGUCACACCUAAUAAGUCUUUCCAUGUUUCAUUUCUUUCAUACUCCUAGUCAUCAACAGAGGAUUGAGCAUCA,1.39
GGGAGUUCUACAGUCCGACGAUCGUCCCUCAGUGACAGCAUGCCGUCUGUAGCUGAUUCCCACUCAAGUCACUUUUCUGAAUUCAGUUGUUCUGAUCUAGAAAGCAUGAAAACUUCGUGUAGUCAUGGUUCCAGUGAUUAUCACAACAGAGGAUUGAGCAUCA,0.191
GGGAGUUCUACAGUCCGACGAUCAUCCCUCAGUGACAGUAUGCCAUCUGUAGCUGAUUCCCACUCUAGUCAUUUUUCUGAAUUUAGUUGUUCUGACCUAGAAAGCAUGAAAACUUCUUGUAGUCAUGGUUCCAAUGAUUAUCACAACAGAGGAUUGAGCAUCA,3.14
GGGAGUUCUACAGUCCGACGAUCUCACACUGUGCUGUGGCACCCUGUCAACACGGAGUAGACCGGCUCUGCAGAUGGGAGAUUUAGAGUUUUUUAAAUUAUGUACUGGGGACAGGUUUUUGUCGCUUUACAUUGCUUCCUAGUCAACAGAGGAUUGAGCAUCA,1.24
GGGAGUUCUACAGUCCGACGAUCACAGAAGAAGAGCUCACAACUCAGAAGGAACUAUUAGAAGAGUUUCUAAUGGCUGAAAGCUAGGAAAAAUUAGGACAAUUUUACAAAUGAGCCAUCAAAACAAAACAAAAAAGAUAUGGACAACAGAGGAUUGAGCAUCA,0.995
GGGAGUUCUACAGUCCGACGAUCGAGCUAAAGGAGUUAGCAUCUUUAUUUUUGUAUCAAAGAUAAAGGUUAUUUUGAAAUUAUUAGGAUUUUUACACAACUCUGAAAUCUGUUGCUUUUGUAAACAAAUUGUUUGAGCUUAAGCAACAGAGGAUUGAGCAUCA,0.806
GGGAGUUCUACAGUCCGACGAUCAGGGAUGGCCCCCAAUCCCACCUCUGUUUAUUCUGUAAACUACAACCUAUAAAUAACCUUUAGCAUUCCUAUUGUAACAAAAUUAAUUUUUAUGAAAUAAAUUAUAUUUCCUAGUCUAAUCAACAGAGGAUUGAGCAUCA,0.915

# Sample 4
# Target: Interferon regulatory factor 7, full length, phosphomimetic (IRF7, Homo sapiens, UniProt Q92985, residues 1-503, S471D/S472D/S475D/S476D/S477D/S483D/S484D/S487D)
# Technique: protein-binding microarray
# Molecule type: double-stranded DNA, one strand shown
# Matrix: in vitro
# Concentration: 2200 nM top
# Notes: 60-bp whole probe
# Together with: salmon DNA 0.4 mg/ml
# Baseline: random background probes
# Reading: higher = stronger binding
# Constant ends, left off below: GCCTAGCAC … GTCTTGATTCGCTTGACGCTGCTG
# Construct (chain): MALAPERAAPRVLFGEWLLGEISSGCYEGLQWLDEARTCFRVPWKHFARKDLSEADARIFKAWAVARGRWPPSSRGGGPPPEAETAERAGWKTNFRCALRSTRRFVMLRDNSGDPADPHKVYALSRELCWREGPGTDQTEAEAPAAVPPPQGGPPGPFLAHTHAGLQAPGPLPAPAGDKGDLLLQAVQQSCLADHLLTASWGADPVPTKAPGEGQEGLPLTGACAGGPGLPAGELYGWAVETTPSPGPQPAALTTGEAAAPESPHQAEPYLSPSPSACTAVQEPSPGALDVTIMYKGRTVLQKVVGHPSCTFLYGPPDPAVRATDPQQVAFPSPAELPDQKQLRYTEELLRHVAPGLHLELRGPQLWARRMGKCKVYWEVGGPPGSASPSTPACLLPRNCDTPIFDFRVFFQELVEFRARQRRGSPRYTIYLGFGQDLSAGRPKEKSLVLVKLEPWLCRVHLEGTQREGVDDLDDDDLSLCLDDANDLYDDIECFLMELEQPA
Strand,fitted relative affinity
TCATATGTCATTTACATACTGTGCTAG,1.35 z-score
TTAGGTCTCCCTTTCCTTTAGTGCTAG,1.77 z-score
GACGAACTGAGTATCGAGATGTGCTAG,0.00739 z-score
TTAGAACTGGGGTTTAGATTAGTGCTA,-0.106 z-score
TCCCCTCTCATTCCAATTCTGTGCTAG,2.06 z-score
TCATCTTTTTTTCTTTTACTGTGCTAG,2.56 z-score
GACTGTATCGACACTGGGGACGTGCTA,0.167 z-score
ATGTTTTGAGTTTTCCTTCAGTGCTAG,2.71 z-score
TTAGGTTTCGATTTTCGGTTAGTGCTA,12.4 z-score
TCATATTGCTTTCTCTTACTGTGCTAG,2.52 z-score
GACGGACTTGGTATCGGGACGTGCTAG,-0.288 z-score
GACGGTTTCTACTATCGGGACGTGCTA,1.83 z-score
TCATTCCTGATCTCTGGTCTTGTGCTA,1.83 z-score
CCTTGTACGTCGTTTCCCAAGGTGCTA,1.57 z-score
TCACCCTTGCTTTCCAAACTGTGCTAG,2.66 z-score
TTAGATTTCAGACTTGATTAGTGCTAG,0.108 z-score
AATATGTTCCCTATATAAGGGTGCTAG,0.661 z-score

# Sample 5
# Target: NFE2L2, bZIP domain (human)
# Technique: DHFR protein complementation
# Matrix: yeast
# Notes: single substitutions, most at no-binding floor
# Baseline: wild-type JUN-FOS pair
# Reading: higher = stronger binding
# Parent: JUN, bZIP domain (human); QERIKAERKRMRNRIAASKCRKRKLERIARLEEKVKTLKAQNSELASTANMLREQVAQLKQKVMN; partner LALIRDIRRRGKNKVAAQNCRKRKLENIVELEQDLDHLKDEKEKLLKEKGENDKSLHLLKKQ
Change,binding fitness
E44G,-1.51 natural log
T48M,-1.35 natural log
K39L,-1.52 natural log
T37A,-1.48 natural log
S47Y,-1.49 natural log
A29L,-1.45 natural log
A46F,-1.15 natural log
T37R,-1.32 natural log
T48R,-1.31 natural log
K39C,-1.59 natural log
S47R,-1.36 natural log
E54G,-1.44 natural log
S47E,-1.35 natural log
K34E,-1.21 natural log
N42K,-1.52 natural log
S43L,-1.32 natural log
A49N,-1.45 natural log
I28P,-1.53 natural log
T48P,-1.31 natural log
R30G,-1.31 natural log
A46K,-1.42 natural log
V35E,-1.34 natural log
A49P,-1.5 natural log

# Single results of other studies
Molecule,target,assay,test system,conditions,how to read,quantity,value
"PhoQ, residues 284 288 289 292 302 303 TYGVAM","PhoP, residues 12 14 15 18 19 GQAIL (Escherichia coli, UniProt P23836)","Sort-seq, measured: YFP reporter",E. coli,"PhoQ-PhoP variant library, together with: 10 µM Mg2+","baseline: high Mg2+ state, higher = stronger signaling",fold induction,21

# Excerpt of the above (sample 5):
Change,binding fitness
R30G,-1.31 natural log
I28P,-1.53 natural log
K39L,-1.52 natural log
S47R,-1.36 natural log
K34E,-1.21 natural log
